Experimental data gathered from unrelated publications.
Each line is one published result; not all experiments were run side by side. pKi: −log10 of the molar value.
Target: Kappa-type opioid receptor (OPRK1, Homo sapiens, UniProt P41145)

| SMILES | test | setting | pKi |
| --- | --- | --- | --- |
| CC(=O)N1CCC(NC(=O)C(N)Cc2c(C)cc(O)cc2C)c2cc(CN3CCc4ccccc4C3)ccc21 (stereo not shown) | ligand displacement, radioligand | cell membranes | 9.11 |
| Cc1cc(O)cc(C)c1CC(N)C(=O)NC1CCNc2c(CN3CCCCC3)cc(Cc3ccccc3)cc21 (stereo not shown) | ligand displacement, radioligand | cell membranes | 9.03 |
| CC(C)[C@H]1CC[C@H](N2CC[C@@](C)(c3cccc(O)c3)[C@@H](C)C2)CC1 | ligand displacement, radioligand |  | 7.29 |
| Cc1cc(O)cc(C)c1CC(N)C(=O)NC1CCNc2ccc(Cc3ccc4ncccc4c3)cc21 (stereo not shown) | ligand displacement, radioligand | cell membranes | 6.92 |
| CCNC(=O)c1cc(Cc2ccccc2)cc2c1NCCC2NC(=O)C(N)Cc1c(C)cc(O)cc1C (stereo not shown) | ligand displacement, radioligand | cell membranes | 7.60 |
| CC(C)C[C@H](NC(=O)[C@H](Cc1ccc2ccccc2c1)NC(=O)CNC(=O)[C@H](NC(=O)[C@@H](N)Cc1ccc(O)cc1)[C@H](C)O)C(=O)N[C@@H](CO[C@@H]1O[C@H](CO)[C@@H](O)[C@H](O)[C@H]1O)C(N)=O | ligand displacement, radioligand | pH 7.4, cell membranes | 6.89 |
| CCCc1cc(Cc2ccccc2)cc2c1NCCC2NC(=O)C(N)Cc1c(C)cc(O)cc1C (stereo not shown) | ligand displacement, radioligand | cell membranes | 7.01 |
| Cc1cc(O)cc(C)c1CC(N)C(=O)NC1CCNc2ccc(Cc3ccoc3)cc21 (stereo not shown) | ligand displacement, radioligand | cell membranes | 7.70 |
| Cc1cc(O)cc(C)c1CC(N)C(=O)NC1CCNc2c1cc(Cc1ccccc1)cc2C(C)(C)C (stereo not shown) | ligand displacement, radioligand | cell membranes | 7.32 |
| CC(=O)N1CCC(NC(=O)C(N)Cc2c(C)cc(O)cc2C)c2cc(CN3CCC4CCCCC4C3)ccc21 (stereo not shown) | ligand displacement, radioligand | cell membranes | 7.82 |
| OC1(c2ccc(Cl)cc2)CCN(Cc2cccc(F)c2)CC1 | binding |  | 6.00 |
| NCc1ccc2[nH]c3c(c2c1)CC1(O)C2Cc4ccc(O)c5c4C1(CCN2CC1CC1)C3O5 (stereo not shown) | ligand displacement, radioligand | cell membranes | 8.87 |
| CC1(C)SCCSC[C@@H](NC(=O)[C@@H](N)Cc2ccc(O)cc2)C(=O)N[C@@H](Cc2ccccc2)C(=O)N[C@H]1C(N)=O | ligand displacement, radioligand | cell membranes | 5.02 |
| Cc1cc(O)cc(C)c1CC(N)C(=O)NC1CCNc2ccc(CN3CCC4CCCCC4C3)cc21 (stereo not shown) | ligand displacement, radioligand | cell membranes | 7.43 |
| Cc1cc(O)cc(C)c1CC(N)C(=O)NC1CCNc2c(C(=O)O)cc(Cc3ccccc3)cc21 (stereo not shown) | ligand displacement, radioligand | cell membranes | 6.68 |
| Cc1cc(O)cc(C)c1CC(N)C(=O)NC1CCNc2ccc(CN3CCCCC3)cc21 (stereo not shown) | ligand displacement, radioligand | cell membranes | 7.54 |
| Cc1cc(O)cc(C)c1CC(N)C(=O)NC1CCNc2c(Br)cc(Cc3ccccc3)cc21 (stereo not shown) | ligand displacement, radioligand | cell membranes | 7.89 |
| Oc1cccc(CCN(CCc2ccccc2)CC2CCCC2)c1 | cell-free assay |  | 9.64 |
| CC(C)C[C@H](NC(=O)C1(NC(=O)CNC(=O)[C@H](NC(=O)[C@@H](N)Cc2ccc(O)cc2)[C@H](C)O)Cc2ccccc2C1)C(=O)N[C@@H](CO)C(N)=O | ligand displacement, radioligand | pH 7.4, cell membranes | < 5.00 |
